Results pooled from the literature.
Numbered parts are unrelated; each lists some results of a single study. Substitutions count along the parent as printed.

Study 1
Target: ABI1, truncated, D143A, DHFR fusion (Arabidopsis thaliana)
Method: DHFR PCA, deep sequencing
Sample: yeast
Notes: methotrexate growth selection, single substitutions
Together with: (+)-ABA 710 µM
Reference: wild-type fitted maximum
Direction: higher = stronger binding
Measurement: relative binding score
Starting sequence: PYL1, truncated, DHFR fusion (Arabidopsis thaliana); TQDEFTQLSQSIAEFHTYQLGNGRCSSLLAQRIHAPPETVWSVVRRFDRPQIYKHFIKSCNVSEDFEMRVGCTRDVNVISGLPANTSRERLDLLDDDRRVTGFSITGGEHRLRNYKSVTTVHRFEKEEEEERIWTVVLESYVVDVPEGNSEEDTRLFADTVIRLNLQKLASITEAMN; partner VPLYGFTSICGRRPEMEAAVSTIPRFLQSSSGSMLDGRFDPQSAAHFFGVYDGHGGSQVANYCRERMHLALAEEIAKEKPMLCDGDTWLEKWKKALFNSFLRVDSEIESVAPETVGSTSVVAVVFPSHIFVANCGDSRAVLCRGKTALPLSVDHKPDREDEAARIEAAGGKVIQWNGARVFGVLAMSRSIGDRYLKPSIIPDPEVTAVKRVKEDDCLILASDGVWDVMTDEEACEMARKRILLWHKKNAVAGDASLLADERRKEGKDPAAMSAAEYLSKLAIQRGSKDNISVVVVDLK
N149G: 78.4%
H122E: 89.8%
G21P: 102%
E67G: 101%
L82T: 79%
W41D: -2.49%
T6R: 110%
G71Q: 62.4%
K116A: 92.7%

Study 2
Target: RNA binding protein fox-1 homolog 2, RRM domain, GST-SBP tag (RBFOX2, Homo sapiens, UniProt O43251-10, residues 100-194)
Method: RNA Bind-n-Seq
Molecule type: RNA
Sample: in vitro
Concentration: 365 nM
Notes: natural RNA segment, single round, ends assumed
Reference: no-protein control
Direction: higher = stronger binding
Measurement: RBNS enrichment (R)
All sequences stand within: GGGAGUUCUACAGUCCGACGAUC … UGGAAUUCUCGGGUGCCAA
Target sequence (chain): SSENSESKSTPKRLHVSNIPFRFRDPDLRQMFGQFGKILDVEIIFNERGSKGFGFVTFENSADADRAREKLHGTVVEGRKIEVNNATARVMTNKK
UCAGCCCUCCAUUCCGUCUAGCUGCCUUAGUAAGGAACCUGGGGGUGUGGUUAGUGGAAGACCUGGAGACAAAGGGGACUGUGGCUGGUGUCACCUGGAGAUGCCCUCUA: 0.273
AAAGCAUAGAUUGCACAGGAAGGUAUGAGUACAAAUACUGUAAUGCAUAACUUGUUAUUGUCCUAGAUGUGUUUGAUAUUUUUCCUUUACAACUGAAUGCUAUAAAAGUG: 0.568
UGGUUUUGGAAUGCAGGGUCAGCCUUGGAGUAUCUCUGAGCAUUGUGGCCUCAGCCAGGAGCGCACUGGCCAGUCUCCCAGGCCUGGAAGCACUGCAGUGUGCAGAGGCU: 1.47
AGUCUUAUCAGCAAAUUACUCUGGCCACUCUUGGAGCUAGAUAUUUUCCAAAUUUUCUCUGAAGGUGAGUUUUAUAUCAAUAAGUAUGAAUAGAGAUUUACUUUAGGGGU: 0.56
CUUUUCCGGUGCCGUGGUUGGAGUGGGAGCCCACGCCUCGGGAGCUCUGGCCUUGCUCUUUCAAGUCUUGUUUGAAAAAUAAUCCAGUCAGCUGACUUCCAGUACUGUGA: 0.875
AGGGUGGGGGAAGGCUUUCUCUUCAAAUUCGCUAGUUGAGUUUUUAAGAUAGUGUAACAUGCUUACAUUUCUUAUCCGACAUUAACAAAUAAAACGCUGUUUUCCUAUUA: 0.385
UGUCUGCAAACACUACCCUACCUAAAUCCAGCCUCUAAGGUCUCACUGGUGUGGAAUUAAACUCUUAUUGGCCAAAUGCCUGUUUUCAUGAGGUGACUUGUAAAGAUUUU: 0.508
GGGCAUCUUUAGUUCCAAGAACUGGAAGCCAGAGCUGCAGGCUCCUCCCACCUCUCUCCAGGCUGGUGUUGACUGGGCCCGGAAAUCAAUCCCCAGCACUUACUUCUCAC: 0.43
UGUUAGAAACAAGGCUACAGUUUUAAAAUGGCUUGGUUCUGUCCUUGCAAUUGCUUUGUCGUGGCAAGUGUGUUGUUCUACUCUCUCUUGUUUGAAACAAUGCUUGACAA: 1.46
UACACGGCUCUCUAAAGCCCUACAGAGGGUUCAUGUGUUUAGACCUGAGAAAUCAGGACAUGGAAAUCAGAGCAUAUACAUAAGGAACUUAAUUUUAAUGUAAUCAUGUC: 0.651
UCUGAAACCAGUGUUAGGGAAGGGCCUGCCACAGCCUCCCCUGCCAGGGCAGGGCCCCAGGCAUUGCCAAGGGCUUUGUUUUGCACACUUUGCCAUAUUUUCACCAUUUG: 0.533
CAGAAAAGAUUUAUUAGAAAACCCUCACCCCAACCUGGUGAGGCAGUCACUCAUGACUGGAGGAAACAGGCUUCCUCCACAAAAGUCUCUCUAUAAAAUAUAUAAAACAC: 0.537

Study 3
Target: Interferon regulatory factor 5, full length, phosphomimetic (IRF5, Homo sapiens, UniProt Q13568-2, residues 1-514, K96S/S451D/S453D/S456D/S462D)
Method: protein-binding microarray
Molecule type: double-stranded DNA, one strand shown
Sample: in vitro
Concentration: 250 nM
Notes: 60-bp whole probe
Together with: salmon DNA 0.4 mg/ml
Reference: random background probes
Direction: higher = stronger binding
Measurement: log fluorescence
All sequences stand within: GCCTAGCAC … GTCTTGATTCGCTTGACGCTGCTG
GACGCTATCCTTATCCTGACGTGCTAG: -0.0139 z-score
TCTCCTCCAGGTTCTCTGACAGTGCTA: -0.0561 z-score
TCATGCTTCTGTATGGGACTGTGCTAG: -0.0647 z-score
GACTATATCGGGTATCGAGACGTGCTA: 2.32 z-score
GACGGTATCCACTATCGGGACGTGCTA: 2.24 z-score
TTGGGACTGCTTCTCCTTTAGTGCTAG: -0.586 z-score
TTAGAACTCGGGTTTCGATTAGTGCTA: 6.66 z-score
TTAGGACTCCTTCTCCTTTAGTGCTAG: -0.304 z-score
GTAGGTCTCCTACTGCTTTAGTGCTAG: -0.67 z-score
GACGGTATCGTACTGGGGACGTGCTAG: 0.492 z-score
ACTTAAACTAGAAACTGACTTGTGCTA: 0.752 z-score
TTAGGTATCGGATATCGGTTAGTGCTA: 4.86 z-score
GACGTTTTCGACACTGGGGACGTGCTA: 2.62 z-score
TTAGGACTGGGTACTGGGTTAGTGCTA: -0.448 z-score
GACAGTTTCCTACTGCTGACGTGCTAG: 0.604 z-score
GACGGTTTCGGGACTGAGGACGTGCTA: 4.95 z-score
TTAGAACTAAGTATCGATTAGTGCTAG: 6.51 z-score
TCACTTTTTTTTTTTTTACTGTGCTAG: 1.17 z-score
GCTAGTGTGCCATATTTATCTGTGCTA: -0.0773 z-score

Study 4
Molecule: PhoQ, residues 284 288 289 292 302 303 SNGLAW
Method: Sort-seq
Measured: YFP reporter
Sample: E. coli
Notes: PhoQ-PhoP variant library
Together with: 10 µM Mg2+
Reference: high Mg2+ state
Direction: higher = stronger signaling
Measurement: fold induction
PhoP, residues 12 14 15 18 19 TPWTL (Escherichia coli, UniProt P23836): 12.1
PhoP, residues 12 14 15 18 19 NFFVT (Escherichia coli, UniProt P23836): 7.22
PhoP, residues 12 14 15 18 19 LHHYF (Escherichia coli, UniProt P23836): 7.12
PhoP, residues 12 14 15 18 19 VGHWL (Escherichia coli, UniProt P23836): 8.52

Repeated from above (study 2):
CAGAAAAGAUUUAUUAGAAAACCCUCACCCCAACCUGGUGAGGCAGUCACUCAUGACUGGAGGAAACAGGCUUCCUCCACAAAAGUCUCUCUAUAAAAUAUAUAAAACAC: 0.537
UGGUUUUGGAAUGCAGGGUCAGCCUUGGAGUAUCUCUGAGCAUUGUGGCCUCAGCCAGGAGCGCACUGGCCAGUCUCCCAGGCCUGGAAGCACUGCAGUGUGCAGAGGCU: 1.47
AAAGCAUAGAUUGCACAGGAAGGUAUGAGUACAAAUACUGUAAUGCAUAACUUGUUAUUGUCCUAGAUGUGUUUGAUAUUUUUCCUUUACAACUGAAUGCUAUAAAAGUG: 0.568
CUUUUCCGGUGCCGUGGUUGGAGUGGGAGCCCACGCCUCGGGAGCUCUGGCCUUGCUCUUUCAAGUCUUGUUUGAAAAAUAAUCCAGUCAGCUGACUUCCAGUACUGUGA: 0.875
UGUCUGCAAACACUACCCUACCUAAAUCCAGCCUCUAAGGUCUCACUGGUGUGGAAUUAAACUCUUAUUGGCCAAAUGCCUGUUUUCAUGAGGUGACUUGUAAAGAUUUU: 0.508
UGUUAGAAACAAGGCUACAGUUUUAAAAUGGCUUGGUUCUGUCCUUGCAAUUGCUUUGUCGUGGCAAGUGUGUUGUUCUACUCUCUCUUGUUUGAAACAAUGCUUGACAA: 1.46
UACACGGCUCUCUAAAGCCCUACAGAGGGUUCAUGUGUUUAGACCUGAGAAAUCAGGACAUGGAAAUCAGAGCAUAUACAUAAGGAACUUAAUUUUAAUGUAAUCAUGUC: 0.651
